Experimental data from different studies.
± gives the spread as reported.
rep main protease: Replicase polyprotein 1ab, main protease (rep, Severe acute respiratory syndrome coronavirus 2, UniProt P0DTD1)
rep nsp14 N7-methyltransferase: Replicase polyprotein 1ab, nsp14 N7-methyltransferase (rep, Severe acute respiratory syndrome coronavirus 2, UniProt P0DTD1)

Compound	target or system	test	system	setting	endpoint	value
COc1cc(OCc2ccccn2)ccc1/C=C/c1cc(/C=C/c2ccc3cc[nH]c3c2)n[nH]1	rep main protease	viral replication, mKate2 reporter	SARS-CoV-2	20 µM	inhibition	-0.867%
CC[C@H](C)[C@H](NC(=O)[C@H](CC(C)C)NC(=O)[C@H](Cc1c[nH]c2ccccc12)NC(=O)[C@H](CCC(N)=O)NC(=O)[C@@H](NC(=O)[C@H](Cc1ccccc1)NC(=O)[C@H](C)NC(=O)[C@H](CCCCNC(=O)COCCOCCNC(=O)COCCOCCNC(=O)CC[C@H](NC(=O)CCCCCCCCCCCCCCCCCCC(=O)O)C(=O)O)NC(=O)[C@H](CCC(N)=O)NC(=O)[C@H](C)NC(=O)[C@@H](NC(=O)[C@H](CCCCN)NC(=O)[C@H](CC(=O)O)NC(=O)[C@H](CC(C)C)NC(=O)C(C)(C)NC(=O)[C@@H](NC(=O)[C@H](CO)NC(=O)[C@H](Cc1ccc(O)cc1)NC(=O)[C@H](CC(=O)O)NC(=O)[C@H](CO)NC(=O)[C@@H](NC(=O)[C@H](Cc1ccccc1)NC(=O)[C@@H](NC(=O)CNC(=O)[C@H](CCC(=O)O)NC(=O)C(C)(C)NC(=O)[C@@H](N)Cc1ccc(O)cc1)[C@@H](C)O)[C@@H](C)O)[C@@H](C)CC)[C@@H](C)CC)C(C)C)C(=O)N[C@@H](C)C(=O)NCC(=O)NCC(=O)N1CCC[C@H]1C(=O)N[C@@H](CO)C(=O)N[C@@H](CO)C(=O)NCC(=O)N[C@@H](C)C(=O)N1CCC[C@H]1C(=O)N1CCC[C@H]1C(=O)N1CCC[C@H]1C(=O)N[C@@H](CO)C(N)=O			human, plasma	1.5 mg, day 22, multiple ascending dose, geometric mean	half-life	113 h
CC(=O)NO	rep main protease	reporter gene (mKate2), inhibitor		20 µM	inhibition	-0.587%
O=C(C1=C(O)C(=O)N(c2nc3ccc(F)cc3s2)C1c1cccc(F)c1)c1cccs1 (centres unmarked)	rep nsp14 N7-methyltransferase	N7-methyltransferase activity, inhibitor, Py-FLINT			Hill slope	1.58 ± 0.28
CC1=C2CC(C(=O)N[C@@H]3CN(C(=O)c4ccc5ccnn5c4)Cc4nccn4C3)=CN=C2NN1	rep main protease	enzyme activity, inhibitor		5 µM	inhibition	11.2%
CC(C)C[C@H](NC(=O)CNC(=O)c1cc(Cl)ccc1Cl)B(O)O	rep main protease	reporter gene (Gaussia luciferase), inhibitor		20 µM	inhibition	-4.66%
O=c1c2ccccc2[se]n1-c1ccccc1	rep main protease	thermal shift	SARS-CoV-2	main protease	melting temperature	42 °C
CC1CC(c2ccc(C(=O)O)cc2)=NN1c1ccc(C#N)c(Cl)c1.N (centres unmarked)	Replicase polyprotein 1ab, nsp14 methyltransferase (rep, Severe acute respiratory syndrome coronavirus 2, UniProt P0DTD1)				lipophilic ligand efficiency	1.9
O=C(Cc1ccccc1)Nc1nnc(CCSCCc2nnc(NC(=O)Cc3ccccc3)s2)s1	rep main protease	reporter gene (mKate2), inhibitor		20 µM	inhibition	-0.431%
CC(=O)Nc1ccc(N2C(=O)c3cccc4c(Cl)ccc(c34)C2=O)cc1	rep nsp14 N7-methyltransferase	N7-methyltransferase activity, inhibitor, Py-FLINT			Hill slope	0.88 ± 0.21
Cc1cncc(C(=O)NC[C@H]2c3ccccc3CCN2C(=O)c2cccn3nnnc23)c1	rep main protease	enzyme activity, inhibitor		5 µM, run 1	inhibition	31.1%
CC(=O)Nc1ccc2occ(Cc3c(O)ccc4cc(-c5ccccc5)c(=O)oc34)c(=O)c2c1	rep nsp14 N7-methyltransferase	N7-methyltransferase activity, inhibitor, Py-FLINT			Hill slope	1.07 ± 0.08
O=C(N[C@@H]1CC[C@H]2C[C@@H]1CN2C(=O)c1cccc(-n2cncn2)c1)c1cc2c(=O)[nH]ccn2n1	rep main protease	enzyme activity, inhibitor		5 µM, run 1	inhibition	12.2%
NC(=O)C1=C(O)C[C@@H]2C[C@@H]3Cc4cccc(O)c4C(=O)C3=C(O)[C@]2(O)C1=O	rep main protease	reporter gene (mKate2), inhibitor		20 µM	inhibition	-0.271%
Cc1nocc1C(=O)N1Cc2ccccc2[C@@H](CNC(=O)c2cncc3ccc(F)cc23)C1	rep main protease	enzyme activity, inhibitor		5 µM, run 1	inhibition	17.1%
CCC(C(=O)Nc1cc(NC2CCOC2)ccc1C)n1cc(Br)cc2nc(SCc3ccc(F)cc3)nc1-2 (centres unmarked)	Replicase polyprotein 1ab, papain-like protease (rep, Severe acute respiratory syndrome coronavirus 2, UniProt P0DTD1)	binding			koff	0.091 s⁻¹
Cc1nn(-c2ccc(Cl)cc2)c2c1C(c1ccc(Cl)cc1Cl)C(C#N)=C(N)O2 (centres unmarked)	rep main protease	3CL protease activity		0.001 µg/mL, 120 min, enzyme 1 ng/mL	inhibition	4.85%

Repeated from above:
Compound	target or system	test	system	setting	endpoint	value
O=C(Cc1ccccc1)Nc1nnc(CCSCCc2nnc(NC(=O)Cc3ccccc3)s2)s1	rep main protease	reporter gene (mKate2), inhibitor		20 µM	inhibition	-0.431%
CC(=O)Nc1ccc(N2C(=O)c3cccc4c(Cl)ccc(c34)C2=O)cc1	rep nsp14 N7-methyltransferase	N7-methyltransferase activity, inhibitor, Py-FLINT			Hill slope	0.88 ± 0.21
